# Results collected from several papers.
# Parts stem from different laboratories: compare values within a part only.

# Study 1
# Target: Histone acetyltransferase KAT6A, winged helix 1, GST fusion (KAT6A, Homo sapiens, UniProt Q92794, residues 1-85)
# Method: protein binding microarray
# Form: double-stranded DNA, one strand shown
# Matrix: in vitro
# Tested at: not given
# Setting: 8-mer, flanks averaged, mean of 2 arrays, mostly near background
# Baseline: not given
# Reading: higher = stronger binding
# Residues (chain): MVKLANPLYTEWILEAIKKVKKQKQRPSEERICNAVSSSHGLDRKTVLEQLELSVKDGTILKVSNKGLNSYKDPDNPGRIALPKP
Sequence,E-score
CTGCAATC,-0.106
CACTGTAG,-0.0887
CAGTGGCC,-0.0362
TATGACCA,-0.0845
CTGCGCGA,0.261
AGCTGGCA,-0.245
CATCACGC,0.14
TATGCTAA,-0.095
ACAGGTAC,-0.161
CATCGTCG,0.179
AATTCACG,0.00475
GTACACTA,0.0342
AGTATGTG,-0.206
ACGTTATC,-0.131
AAGTCATG,-0.164
TAACGACA,-0.0608
GATGCTCA,-0.0899
GTCTCCTA,-0.269
CTTTCAGA,-0.112
AGCGCTAG,0.207
GTCAACGA,-0.166
CGACGGTC,0.337
GTGATCCA,-0.0995
GAGGATGA,-0.0659
CCTGATCC,-0.179

# Study 2
# Target: Fragile X messenger ribonucleoprotein 1, C-terminal low-complexity region (Fmr1, Mus musculus, UniProt P35922)
# Method: RNA Bind-n-Seq
# Form: RNA
# Matrix: in vitro
# Tested at: 200 nM
# Setting: whole 134-nt RNA, ends assumed
# Added: 150 mM LiCl
# Baseline: input library
# Reading: higher = stronger binding
# Each molecule: 7-deaza-guanosine replaces G
Sequence,log2 enrichment
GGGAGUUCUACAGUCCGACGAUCGCAGGAAGUAAAAACAAAUGGAAAUGCUACGGAUAGUGGCAGGGGUGGGGGUUGCUAAGGAAAGGGUGGGAUGGGAGUGGGUAAAGAGUUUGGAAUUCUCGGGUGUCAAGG,1.64
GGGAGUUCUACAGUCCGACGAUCCUCAAGUCCUGUGCUACACAUCGUAUGUACCGAAUCGGAAGGGAAGGGAAGGGGAAAGUAUUAUGUUACGCCGUUCGGAUCUGCACUUCCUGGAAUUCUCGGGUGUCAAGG,-0.0214
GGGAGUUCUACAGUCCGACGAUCUCCUCAAGUCCUGUGCUACACAUCGUAUGUACCGAAUCGGAGGAGGUUUGGAAAGUAUUAUGUUACGCCGUUCGGAUCUGCACUUCCAGCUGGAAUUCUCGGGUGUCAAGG,-2.63
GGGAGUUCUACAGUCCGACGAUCCAAGUCCUGUGCUACACAUCGUAUGUACCGAAUCGGGAAAAAGGGAAAGGGUGGGAAAGUAUUAUGUUACGCCGUUCGGAUCUGCACUUCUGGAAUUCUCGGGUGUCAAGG,-0.744
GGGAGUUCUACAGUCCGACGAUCCCUGUGCUACACAUCGUAUGUACCGAAUCGGGUUUUUUGGGGUUUUUUGGGUUUUUUGGGAAAGUAUUAUGUUACGCCGUUCGGAUCUGCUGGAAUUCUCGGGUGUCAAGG,-0.893
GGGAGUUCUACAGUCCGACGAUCCUGUGCUACACAUCGUAUGUACCGAAUCGGGGCCCCCCCGGGGCCCCCCCGGGCCCCCCCGGAAAGUAUUAUGUUACGCCGUUCGGAUCUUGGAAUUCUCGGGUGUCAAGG,-2.04
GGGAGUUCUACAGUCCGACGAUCUAGGUAUUUCUGGGAAAAGCCAGCUUCUGUUUGCACUGGUCUUCACAACUCGUUACCUGGAUCUUUUUACUUCAUUUAUUUCAUUGUAUAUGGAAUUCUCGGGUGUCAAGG,-2.48
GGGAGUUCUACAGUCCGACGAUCACCAUACUUGACAACUUCUGAUUGAAUGCCCAUGCCCAAUGCCAACAUCCACGAACGCCAAUGACCAAUGCAGUACAAUGCCAGUGUUUCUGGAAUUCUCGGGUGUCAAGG,1.08

# Study 3
# Target: RING finger protein unkempt homolog, zinc fingers 1-6, GST-SBP tag (UNK, Homo sapiens, UniProt Q9C0B0, residues 30-357)
# Method: RNA Bind-n-Seq
# Form: RNA
# Matrix: in vitro
# Tested at: not given
# Setting: RNA with constant flanks, human and mouse sites, ends assumed
# Baseline: input RNA pool
# Reading: higher = stronger binding
# Construct (chain): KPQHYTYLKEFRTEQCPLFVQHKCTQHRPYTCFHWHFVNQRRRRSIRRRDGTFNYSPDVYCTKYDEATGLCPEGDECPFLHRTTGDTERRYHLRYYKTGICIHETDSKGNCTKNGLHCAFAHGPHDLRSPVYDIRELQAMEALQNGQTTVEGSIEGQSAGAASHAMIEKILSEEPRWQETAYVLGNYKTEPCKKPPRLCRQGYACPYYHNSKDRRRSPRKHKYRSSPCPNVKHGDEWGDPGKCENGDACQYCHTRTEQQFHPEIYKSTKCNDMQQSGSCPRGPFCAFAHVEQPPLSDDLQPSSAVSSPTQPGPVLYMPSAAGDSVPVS
Sequence,bound/input enrichment [ratio]
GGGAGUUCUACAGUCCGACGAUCGAGCAUCCCCCAAAGUUCACAAUGUGGCCGAGGACUUUGAUUGCACAUUGUUGUUUUUUUAAUAGUCAUUCCAAAUAUGAGAUGCGUUGUUACAGGAAGUCCCUUGCCAUCCUAAAAGCCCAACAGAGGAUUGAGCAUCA,0.54
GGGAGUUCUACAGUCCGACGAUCGGAAACGGACUUUUUGGUGAAGAAACCCAAACGGUUGAUGCCAGGCAGGGUGAUUUGGCCGUCAAAGGUUUUGACGAAACCUGCCCUGUUCUCUCUGGGGAAUCCGAAUGAGGGAGAUCACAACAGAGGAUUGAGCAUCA,0.134
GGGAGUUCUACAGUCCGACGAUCAGCGGCCUGAAAGAUUUCAAAACCUUUUUGACAAAUGAUCAAGUAAAGGUCACCGAUGAAGAGAAUGCAAGUUCAGGUGCAGAUGCUCCCAGUGCAUCAGACACCACAGCCAAGCAAAAUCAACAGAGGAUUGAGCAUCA,0.0994
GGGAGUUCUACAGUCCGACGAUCGUCCCGCCCACCCUCCUUUUCCCUGCACCCUGAGAUCCUGUCUGAGGAGGAAGCUACCCAGAUGGAUCAGUUUGGGCAGGCAGCAGGGGGCCUCAUUCACAGCAUUCGGGAGAUAGCACACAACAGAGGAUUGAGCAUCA,0.339
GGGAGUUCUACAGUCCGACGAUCACUUUAAACCAUUUGACUUUCGCUCCAAAGUUAUGUUGGUAGUAUAGCAAAUUAUGAUGAAUAGCUUUAAUUGUAUGUUUAAAAGUCUCAUAUGUUCACAUGCUUAAAUCUGGGUAUCAGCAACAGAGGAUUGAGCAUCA,6.75
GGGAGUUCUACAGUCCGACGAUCGGCUGGUUAAAUGGCUAUAAUGAAACCACAGGGGAAAGGGGGGACUUUCCGGGAACUUACGUAGAAUAUAUUGGAAGGAAAAAAAUCUCGCCUCCCACACCAAAGCCCCGGCCACCUCGGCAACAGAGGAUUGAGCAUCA,1.15
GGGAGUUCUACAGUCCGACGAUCGAGAGCCGCCUGUCUUGGUUAGAUGGCUCUGGAUUAGGAUUCUCACUGGAAUACCCCACCAUUAGUUUACAUGCAUUAUCCAGGGACCGAAGUGACUGUCUAGGAGAGCAUUUGUAUGUUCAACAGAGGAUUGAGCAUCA,7.98
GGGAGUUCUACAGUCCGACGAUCGUGCAGCUAAGGAAACAGCAUGCAGUCAUGAUUGUUAGAUGAGAGACACUAAAGUACAGUUAGCUGCCAACAAGUAUUAAGGAUUACUCUGCAAAACUUCCCAGUUGCCAGCUGCCAGAGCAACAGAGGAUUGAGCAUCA,0.527
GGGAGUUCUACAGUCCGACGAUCGAAGAAUGGAAUGAACAUAAUGCCAAAAUAAUUAAAUAUAUAAGAACUAAGACAAAGCCCCAUUUGUUUUAUAUUCCUGGAAGAAUGUGUCCAGCUACCCAAAAACUAAUAGAAGAGUCACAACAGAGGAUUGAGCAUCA,3.39
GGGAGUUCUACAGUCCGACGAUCUAAGUCCUGUGCCAGCACUUCGCUCAUAAAGUUUUAAAUUCUGGACCAAUAGUGUUUGUUUCCUGAUUAUUGUAUCCAAUACUUUGCCUAGUAUGUAACUCACUCUUACUGAUAAUAAAACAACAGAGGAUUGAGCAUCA,1.46
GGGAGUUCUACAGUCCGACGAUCCCACAGGCCGGUUUAAUGGCCAGUUUAAAACCUAUGGCAUCUGCGGGGCCAUUCGCAGGAUGGUGAGUUCUACCACCUGGUCUGCCUUGUACUGUUCAUGUGACAUCUGAGCUCUGAUGGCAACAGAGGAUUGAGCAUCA,0.197

# Study 4
# Target: RNA binding protein fox-1 homolog 2, RRM domain, GST-SBP tag (RBFOX2, Homo sapiens, UniProt O43251-10, residues 100-194)
# Method: RNA Bind-n-Seq
# Form: RNA
# Matrix: in vitro
# Tested at: 365 nM
# Setting: natural RNA segment, single round, ends assumed
# Baseline: no-protein control
# Reading: higher = stronger binding
# Target sequence (chain): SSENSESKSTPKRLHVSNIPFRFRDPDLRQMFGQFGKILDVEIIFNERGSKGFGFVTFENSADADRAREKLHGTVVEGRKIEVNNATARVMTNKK
Sequence,RBNS enrichment (R)
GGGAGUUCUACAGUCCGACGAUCUGCUCUCCAUUGACCUGGACAAAGUAGUGUUACCCAACUUUCGAUCCAAUCGCCCUCAAGUGAGACCUUUGUCCCCUGGAGAGAGUGGUGCCUGGGACAUUCCUGGAGGGUGGAAUUCUCGGGUGCCAA,0.342
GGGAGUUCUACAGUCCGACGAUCAAAAGUACUGUUUUAGCAGUGCACGUUCACUUCCACAGAGACUUUUAGGUGGGACUGUUCCAAGACACUCUCGAGGAUAUUGCAAACUUGUCCCUGACUAUAGCACAUGUUGGAAUUCUCGGGUGCCAA,3.77
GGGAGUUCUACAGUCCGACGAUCAUGAAAUGGUCAUCACAUCUGACCUUGGUCAGUGGGGAGGGGAACUGGUAUCCUGCCAAGCCUGGUUGUAAUUUGUAACCAUUUUCUAUUUGUGCAAACUCUGUAAAUAUUGGAAUUCUCGGGUGCCAA,0.538
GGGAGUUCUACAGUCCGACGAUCUUUGGCCUGUUGAAUUUGCUGAAGAACAUCACCUAAAGUCUGCACACGAGCCCAUUUUUACCAAGAUUUGAUCAGUGUCUUUACUGAGCUGGAAGCCUCUGAAAGUUAUUUGGAAUUCUCGGGUGCCAA,0.447
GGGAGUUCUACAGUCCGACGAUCUGCUUCAAAGACAGGAGUUCACUGGGGGAUUCAGAAAGCUUGCCGUUUAUGUUGGUCGCAUCAAACAGCUUGUGGGAUUGUUUCCUCUUCUGUACAUGUUUUCCCCUUUGUGGAAUUCUCGGGUGCCAA,0.346
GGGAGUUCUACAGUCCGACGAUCGUACUUUCCCCGGAAACUACGUCAAGAGGCUGUGAAUUGCGCUCCCUCCUUCUGUAGAGGCCGCCUGCCAGCCAUGCACCUGCGUCAACGCGCCUGAAACACCCCGCGGGUGGAAUUCUCGGGUGCCAA,0.284
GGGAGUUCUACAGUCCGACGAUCCCCCAACCCAGGCCCCUGGCGUGUGUGGGUGUGCGUGCGUGUGCGUGCCGUGUUCGUGUGCAAGGGGCCGGGGAGGUGGGCGUGUGUGUGCGUGCCAGCGAAGGCUGCUGUGGAAUUCUCGGGUGCCAA,0.372
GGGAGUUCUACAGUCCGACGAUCCAUCAUCCCUGUAAGCAGAGAGAACCCUAGUCACUAAAGGUGGGAGCCCUUUACCUCUCAUGUUCCACUUUGAAAAGUUUGUAUUGACAUUUGGUUCAUAUCUUGUGUAUUGGAAUUCUCGGGUGCCAA,0.548
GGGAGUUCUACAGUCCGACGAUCCCAUGGCAGUCUAACUUAGCCUGCUUGUCUAAAUUGACUUCUGGUAACCACUUGGGCUAGGACACAGGAGGAAAGGAAGGCACUGUAUUUCCUAUGAGCUCUCUGCUCAGUGGAAUUCUCGGGUGCCAA,0.336

# Excerpt of the above (study 3):
Sequence,bound/input enrichment [ratio]
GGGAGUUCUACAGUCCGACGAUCACUUUAAACCAUUUGACUUUCGCUCCAAAGUUAUGUUGGUAGUAUAGCAAAUUAUGAUGAAUAGCUUUAAUUGUAUGUUUAAAAGUCUCAUAUGUUCACAUGCUUAAAUCUGGGUAUCAGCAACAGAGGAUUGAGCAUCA,6.75
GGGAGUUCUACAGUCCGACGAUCGGCUGGUUAAAUGGCUAUAAUGAAACCACAGGGGAAAGGGGGGACUUUCCGGGAACUUACGUAGAAUAUAUUGGAAGGAAAAAAAUCUCGCCUCCCACACCAAAGCCCCGGCCACCUCGGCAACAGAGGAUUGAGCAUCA,1.15
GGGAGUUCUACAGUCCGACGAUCGAGAGCCGCCUGUCUUGGUUAGAUGGCUCUGGAUUAGGAUUCUCACUGGAAUACCCCACCAUUAGUUUACAUGCAUUAUCCAGGGACCGAAGUGACUGUCUAGGAGAGCAUUUGUAUGUUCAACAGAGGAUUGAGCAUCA,7.98
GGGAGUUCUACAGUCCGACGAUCGUGCAGCUAAGGAAACAGCAUGCAGUCAUGAUUGUUAGAUGAGAGACACUAAAGUACAGUUAGCUGCCAACAAGUAUUAAGGAUUACUCUGCAAAACUUCCCAGUUGCCAGCUGCCAGAGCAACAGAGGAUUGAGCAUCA,0.527
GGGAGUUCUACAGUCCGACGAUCGAAGAAUGGAAUGAACAUAAUGCCAAAAUAAUUAAAUAUAUAAGAACUAAGACAAAGCCCCAUUUGUUUUAUAUUCCUGGAAGAAUGUGUCCAGCUACCCAAAAACUAAUAGAAGAGUCACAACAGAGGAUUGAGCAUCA,3.39
